Measured values from different studies.
A part holds a random share of what one study measured.

Study 1 — method: competition protein-binding microarray; molecule type: double-stranded DNA, one strand shown; medium: in vitro; tested at: 2 µM; with: Cbf1 competitor, 0.05 µM; reading: higher = stronger binding; constant ends, left off below: … GTCTTGATTCGCTTGACGCTGCTG
Target: Phosphate system positive regulatory protein PHO4, full length, GST-tagged (PHO4, Saccharomyces cerevisiae, UniProt P07270, residues 1-312)
Notes: whole 60-bp probe, lowest competitor level
Target sequence (chain): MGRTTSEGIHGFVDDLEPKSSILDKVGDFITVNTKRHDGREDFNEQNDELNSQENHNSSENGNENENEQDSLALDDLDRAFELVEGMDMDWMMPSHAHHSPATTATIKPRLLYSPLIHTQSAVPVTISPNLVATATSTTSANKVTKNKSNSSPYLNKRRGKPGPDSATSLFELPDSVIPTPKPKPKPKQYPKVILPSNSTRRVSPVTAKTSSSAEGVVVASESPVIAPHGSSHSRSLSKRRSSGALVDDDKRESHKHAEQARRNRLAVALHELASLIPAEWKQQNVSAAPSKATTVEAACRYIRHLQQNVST
Oligonucleotide	fluorescence intensity [a.u.]
CTTGTGCGGGGAGGACACGCTGAATAGAAGGCTTGT	6400
GCCCGACGATTTGCCCACATGTCAATCGGATTGGGC	10500
TCTTCCGCGATGTTTCTCGTGGTGAGGCTATGGGCA	6500
GTAAAAGTGGCAGCACACCTGATCTAATACTAGCTA	6040
ATTCTCGTAATTATTCTCGTGATGGCGTTTGCAACC	5400
GACAAGTTACAACTGATCGTGACGGAGAACGGTAAG	5450
TCATGGTGAATTTTGCACGTGGCCGTCCAAGTCCTT	15200
TTCCCAAGTATTGGACACGGGGCTGGAACTTGGAAT	8510
AAACAGTGCTCAATAATCGTGACGGGAGGGTCATTA	5090
AAGAAAGTTCCACTTCACGTTTCCCCAGCTTTCCGG	8930
CGTCCTAGTGATTGGTTTGTGGGTGCCATGAGGAAG	7530
AAATTACTAAGTTGTCCGGTGGGTGACGCCGTATGA	3410
CCCCTCCTCTCTCCGCACGATTTCTTCCTTTCATAT	6730
CACAAAGGTTCGTTGACCGTGCCGAGGAACTTCCGC	6080
TACGTCCAGCCAAATCACATGATACTGGCTTGAACA	5650
GTCTTGTCTCATTGCTGTGTGGGTGTCCCCACTTCA	5560
CATACCCAACCTTGTATAGTGGGTGAAGATATTTGT	4060
ACAAAATTGCAGGGCAACGTGTATCATTCAGTAGAG	13400
CTTCGCGCCACATCGCACGGGTGCAGGAACAACTGT	8520
CATACCCAACCTTGCTCTGTGGGTGAAGATATTTGT	4270
CATACCCAACCTTGCCAGGTGGGTGAAGATATTTGT	6140
GTAACTGTTGTATTGAACGTGGACCAGGACAAGAAA	10200
CTTTCCCGATCTTGACGCGTGGGTGTAGCACATTTG	10100
CAGCTTCAACCAAATAACGTGGGTATTCTGGAACGA	10600
ACTAGTGGCGACACTCAGGTGGTCCTCGGTGCCTTA	3770

Study 2 — method: universal PBM; molecule type: double-stranded DNA, one strand shown; medium: in vitro; tested at: not given; reading: higher = stronger binding
Target: Sal-like protein 4, full length isoform B (SALL4, Homo sapiens, UniProt Q9UJQ4-2, residues 1-616)
Notes: 8-mer, flanks averaged, mean of replicates
Oligonucleotide	E-score
GGCTCAAA	-0.109
GATCCGAC	-0.0731
CGGGGACG	-0.246
ACAGTTGA	-0.067
ACGGAGTG	-0.1
AACTAACT	0.0432
AACCTGTG	-0.0673
CTTAACAC	0.0972
ATACGTCG	0.0725
AAAAAATA	0.419
AAATACTT	0.273
CCCTGCAG	-0.21
AGAAAGGA	0.00351
ATAACACC	0.254
CCACTTGA	0.0451
GCATACAA	0.138
CACAAGGA	0.0101
TCGACTAA	0.035
ATAGAAAC	0.262
AGCGCTAC	-0.0208
AATATGCA	0.234
CCGCGACC	-0.284
CAAGCCTC	-0.28
GGGATACC	-0.313
CTTCTCTC	-0.0553

Study 3 — method: RNA Bind-n-Seq; molecule type: RNA; medium: in vitro; tested at: 365 nM; reference: no-protein control; reading: higher = stronger binding
Target: RNA binding protein fox-1 homolog 2, RRM domain, GST-SBP tag (RBFOX2, Homo sapiens, UniProt O43251-10, residues 100-194)
Notes: natural RNA segment, single round, ends assumed
Constant ends, left off below: GGGAGUUCUACAGUCCGACGAUC … UGGAAUUCUCGGGUGCCAA
Residues (chain): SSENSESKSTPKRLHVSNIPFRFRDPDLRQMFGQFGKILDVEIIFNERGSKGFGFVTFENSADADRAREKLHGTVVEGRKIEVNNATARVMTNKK
Oligonucleotide	RBNS enrichment (R)
GUUCUUCAUUCUGUGCUCAGGAUUGAAAUGCUGCGUAGACGUUGUGUUGUUAGUGCUGGGCACGGAUUCUGGGACGGUGAGCUGUUGAUUUCCUAACAGAAAGAUAUUUU	0.239
AACAAUCUUUUGCUAAAAAAAAAAAAAAAGAAAGAAAUUGCUUUAUGGUGAAAACUGUGGGAAGGGUUUUUUUUUUUAAUUUCAACAAAAGAAAAAGUGACCAUCUUACC	0.467
UGAAGAACCCUUGUGAAGUAACCAGGAGGAAUGGGGAAAGAAGCAAGUUGGGCAGGAUAUGGCCUACUUCCAUAGGCUUUUCUUUUUUCAGGUUUGAUGUAAGCAUGGGC	2.24
GGUUGAGGGGACACUUUGACCCUCCAAGGUAACAGCCAGUCAGAUGGCUUGAGGUGCCUGGCCCAUGCUGCCGGCUAAAUGCCAUCCAGUGUGCCCAGCAGUUUCAGACC	0.19
UAUAUAUAUACUUCUAUUUGUGGGUACUUUAGGAAAAUGCCCUUUGGUCACUGUAAAUAUGAAUUGUGACCCCAUCCCUUCCCGCAUGAGCCCAGUGAGUCCCAGCAGCU	4
UUAUAUUCCUUUUCCCAGGAAAGAAGCAUUUCUGAUACUUUCUGUCAAAAAUCAAUAUGCAGAAUGGAUUUGCAAUAAAAGGUUUCCUAAAAUGGUCCUUUGUGCGUGGC	0.462
UGAGGAGCCAGAAGAAACAGAGCCCGACUUGAAUGAACUCAGCUCAGAGUUCUAAGGACCAGCAUUCUGGGGGCCAUUUUCUCUACAGGCAAAUGGAAUUGCUUUUCCAU	0.347
UAUUUCUCUGCAUCUUCUCUUGGAGUGAGGGAGGCUACCUGGAGGGGAUCAGCCCACUGACAGACCUUAAUCUUAAUUACUGCUGUGGCUAGAGAGUUUGAGGAUUGCUU	0.659
CAGCAGAAAUAGAUAGAUGUGCUGUUGCCACUGGACUGAUGAAGGUGGCUGUCUUGGAACUGGGAGACAGGUCCUCAGAGGUGCACUCAGGCAACAGGACAGCCAUCUCU	0.597
CAGAUCUUCAGUCAUUGGGAAGAUGGAGAUACCACUGUAGGGGUGACACCGGGAGACCUAGGAGAUCCCUUCCUGCCCUCUUUCUCUUGGCCUCCGAUUCACUCCUGUCC	0.431
AUAUUACUUAUUUAUCCCAGUAUUCCUAGCCUGUCAACAUAAUAAAUAUCGGAACAAAACCUGGUAACGUUAGUGUGGCACUGGUUUCUGCUAAGUGUUGAGUGACACGA	0.426
UCAGGUUUGUUUACCAUCUCUCCGAGCCUCCACCACACUCCCUGACCCACCCAACGUCUCCAGUUCUUAUUGUUCUCCUUCCUUCCUUCUUUCCUUUCCCUUCUCACCUC	1.18

Study 4 — method: aptamer microarray, sandwich; molecule type: DNA with 2'F-ANA; medium: in vitro; tested at: 200 nM; with: Cy3 exosite-II aptamer, 400 nM; reading: higher = stronger binding; oligonucleotide: GGTTGGTGTGGTTGG
Target: Prothrombin, mature alpha-thrombin (F2, Homo sapiens, UniProt P00734)
Notes: whole 15-mer aptamer, many near background
Modification	mean fluorescence intensity [a.u.]
2'F-ANA at 3 6 8 9 12 13 14 15	553
2'F-ANA at 1 2 5 6 7 10 11 13 14 15	56.4
2'F-ANA at 2 5 7 9 10 12 13	50.3
2'F-ANA at 2 6 7 8 10 11 12	164
2'F-ANA at 6 8 9 10 11 12	172
2'F-ANA at 1 2 7 10 11 12 13 15	93.2
2'F-ANA at 2 3 4 5 6 10 12	84.6
2'F-ANA at 5 9 11 14 15	41.7
2'F-ANA at 6 7 8 9 10 14	164
2'F-ANA at 2 4 5 6 7 9 11 12 13	80.6
2'F-ANA at 2 4 5 8 9 12 13	93.2
2'F-ANA at 3 4 5 9 11 12 14 15	52.8
2'F-ANA at 4 7 8 9 10 15	96.6
2'F-ANA at 3 4 7 8 9 11 14	416
2'F-ANA at 1 2 3 4 5 6 7 12 13 15	76.6
2'F-ANA at 2 4 6 8 9 12 15	521
2'F-ANA at 1 7 8 14 15	65.4
2'F-ANA at 3 5 6 8 10	51.7
2'F-ANA at 2 4 5 6 8 9 10 11 14 15	77.9
2'F-ANA at 1 6 7 10 11 15	51.9

Study 5 — method: protein binding microarray; molecule type: double-stranded DNA, one strand shown; medium: in vitro; tested at: not given; reference: not given; reading: higher = stronger binding
Target: Histone acetyltransferase KAT6A, winged helix 2, GST fusion (KAT6A, Homo sapiens, UniProt Q92794, residues 85-181)
Notes: 8-mer, flanks averaged, mean of 2 arrays, mostly near background
Target sequence (chain): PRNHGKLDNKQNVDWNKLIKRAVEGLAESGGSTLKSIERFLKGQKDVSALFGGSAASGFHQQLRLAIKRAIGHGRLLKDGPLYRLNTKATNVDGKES
Oligonucleotide	E-score
CTTACATC	-0.141
CCGGGAAA	0.179
GGATTCTA	0.08
CAGAGAGG	-0.0378
AGGCCTAG	-0.0424
AAGCGTGG	-0.0679
ACGGTACC	0.0384
ATTAAATC	0.156
CATAACAA	0.117
CGGGCGTA	-0.092
CCCGACTA	-0.0131
AAGGGTTC	0.00486
GAGCCCTC	0.00843
GGTCGTTA	-0.093
CTATAAGC	-0.132
GGGGGCAC	0.0456
CAGCCGCA	0.161
CCACTATC	-0.116
GCCTGCGA	0.0808
AGTTCAAT	-0.232
CCTGCCGA	0.11
CACCGCTA	-0.0113
ACTCATAG	-0.184
